Measurements pooled from the literature.
Target: Dipeptidyl peptidase 4 (DPP4, Homo sapiens, UniProt P27487)
UniProt P27487, sequence (whole entry, looked up): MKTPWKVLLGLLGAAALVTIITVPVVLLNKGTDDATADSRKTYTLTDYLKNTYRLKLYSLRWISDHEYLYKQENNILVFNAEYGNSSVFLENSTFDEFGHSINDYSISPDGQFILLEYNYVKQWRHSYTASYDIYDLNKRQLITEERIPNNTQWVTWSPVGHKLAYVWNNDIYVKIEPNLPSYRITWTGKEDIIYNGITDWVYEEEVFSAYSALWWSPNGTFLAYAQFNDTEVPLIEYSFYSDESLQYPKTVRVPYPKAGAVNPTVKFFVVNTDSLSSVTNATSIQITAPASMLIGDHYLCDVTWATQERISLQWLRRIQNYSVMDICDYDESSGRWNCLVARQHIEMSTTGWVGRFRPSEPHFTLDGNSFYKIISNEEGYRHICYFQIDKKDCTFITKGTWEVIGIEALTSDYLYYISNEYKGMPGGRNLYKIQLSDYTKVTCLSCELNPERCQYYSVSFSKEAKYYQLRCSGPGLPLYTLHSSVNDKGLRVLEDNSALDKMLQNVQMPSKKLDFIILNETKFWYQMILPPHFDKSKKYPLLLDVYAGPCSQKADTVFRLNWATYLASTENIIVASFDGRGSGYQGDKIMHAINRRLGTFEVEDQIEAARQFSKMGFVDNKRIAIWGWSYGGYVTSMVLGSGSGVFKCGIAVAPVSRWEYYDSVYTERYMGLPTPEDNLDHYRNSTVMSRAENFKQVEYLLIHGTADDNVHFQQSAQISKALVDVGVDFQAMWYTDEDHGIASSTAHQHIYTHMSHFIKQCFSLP
Mode: inhibitor

The IC50 of `Cn1c(=O)c(=O)n(C)c2cc(S(=O)(=O)Nc3ccc(S(=O)(=O)Nc4nccs4)cc3)ccc21` is reported as 0.00093 µM (enzyme activity, fluorescence).
`NC(CC(=O)NN=Cc1c[nH]cn1)Cc1cc(F)c(F)cc1F` (stereo not shown) gave an IC50 of 24 µM (enzyme activity).
For `COc1cc(/C=C/C(=O)OC[C@H]2O[C@H](O[C@]3(CO)O[C@H](CO)[C@@H](O)[C@@H]3OC(=O)/C=C/c3ccc(O)c(OC)c3)[C@H](O)[C@@H](O)[C@@H]2O)ccc1O`, the IC50 was 46.2 µM (enzyme activity).
For `COc1ccc(C=NNC(=O)CC(N)Cc2cc(F)c(F)cc2F)cc1OC` (stereo not shown), the IC50 was 34.3 µM (enzyme activity).
The IC50 of `Cn1c(=O)c(=O)n(C)c2cc(S(=O)(=O)NNC(=S)Nc3ccccc3)ccc21` is reported as 4.9e-05 µM (enzyme activity, fluorescence).
For `CC(=O)N[C@@H](CCCNC(=N)N)C(=O)NCCOCCOCC(=O)N[C@H](C)C(=O)N1CCC[C@H]1B(O)O`, the Ki was 6.1 µM (enzyme activity, fluorescence).
`CCNC(=S)NNS(=O)(=O)c1ccc2c(c1)n(C)c(=O)c(=O)n2C` has an IC50 of 6.8e-05 µM (enzyme activity, fluorescence).
`O=c1c2c(O)cc(O)cc2oc2oc3cc(O)ccc3c12` gave a Ki of 35.1 µM (enzyme activity).
The IC50 of `Cn1c(=O)c(=O)n(C)c2cc(S(=O)(=O)Nc3ccc(S(=O)(=O)Nc4ccccn4)cc3)ccc21` is reported as 0.00048 µM (enzyme activity, fluorescence).
For `N#C[C@@H]1CCCN1C(=O)CNC(=O)c1ccnc2ccc(/C=C/C(=O)NCc3cn(CCOCCOCCOCCNC(=O)CCCC[C@@H]4SC[C@@H]5NC(=O)N[C@@H]54)nn3)cc12`, the IC50 was over 100 µM (enzyme activity, fluorescence; with preincubation).
`NC(CC(=O)NN=Cc1ccc(F)c(F)c1)Cc1cc(F)c(F)cc1F` (stereo not shown) has an IC50 of 10.6 µM (enzyme activity).
`N=C(N)NCCC[C@H](NC(=O)[C@H](Cc1ccccc1)NC(=O)CN)C(=O)O` has an IC50 of 959 µM (enzyme activity, absorbance).
The IC50 of `CCC1(CC)C(=O)N(c2cccc(CN3CCN(Cc4ccc(Br)cc4)CC3)c2)C1=O` is reported as 1.4 µM (cell-free assay).

For quick reference, copied from above:
`N=C(N)NCCC[C@H](NC(=O)[C@H](Cc1ccccc1)NC(=O)CN)C(=O)O` has an IC50 of 959 µM (enzyme activity, absorbance).
